Results collected from several papers.
± marks the error that the study gave.

Structure (SMILES) = CCCCCn1cc(C(=O)c2ccc3c(c2)CC(C)(C)C3)c2ccccc21; target or system = Cannabinoid receptor 1 (CNR1, Homo sapiens, UniProt P21554, L359V); assay = Gαi1 engagement, agonist, BRET; scale = baseline: reference agonist at wild-type CB1; quantity = Emax; result = 40.3 ± 4.7%
Structure (SMILES) = N=C(N)NCCC[C@@H]1NC(=O)[C@H](CCCCNC(=O)CCOCCOCCOCCOCCNC(=O)CC[C@H](NC(=O)CCOCCOCCOCCOCCNC(=O)CC[C@H](NC(=O)CN2CCN(CC(=O)O)CCN(CC(=O)O)CCN(CC(=O)O)CC2)C(=O)NCCOCCOCCOCCOCCC(=O)N[C@@H](CCC(=O)NCCOCCOCCOCCOCCC(=O)NCCCC[C@@H]2NC(=O)[C@@H](Cc3ccccc3)NC(=O)[C@H](CC(=O)O)NC(=O)CNC(=O)[C@H](CCCNC(=N)N)NC2=O)C(=O)NCCOCCOCCOCCOCCC(=O)NCCCC[C@@H]2NC(=O)[C@@H](Cc3ccccc3)NC(=O)[C@H](CC(=O)O)NC(=O)CNC(=O)[C@H](CCCNC(=N)N)NC2=O)C(=O)NCCOCCOCCOCCOCCC(=O)NCCCC[C@@H]2NC(=O)[C@@H](Cc3ccccc3)NC(=O)[C@H](CC(=O)O)NC(=O)CNC(=O)[C@H](CCCNC(=N)N)NC2=O)NC(=O)[C@@H](Cc2ccccc2)NC(=O)[C@H](CC(=O)O)NC(=O)CNC1=O [indium-111 labelled]; system = female athymic nude mice, eyes; conditions = intravenous, 3 µCi, 4 h, U-87 MG glioma xenograft; quantity = tissue uptake; result = 1.03 ± 0.14 %ID/g
Structure (SMILES) = CN[C@](C)(C[18F])C(=O)O; target or system = A549 tumour model; system = host not given, liver; conditions = 15 min, tumour-bearing; quantity = tracer uptake; result = 5.6 %ID/g
Structure (SMILES) = CCOC(=O)C1C(OC(c2ccc(Cl)cc2)c2ccc(Cl)cc2)CC2CCC1N2C (single isomer, unassigned); target or system = rat GABAA receptor agonist site; assay = binding, radioligand displacement; conditions = inactive if below 75% at 10000 nM, with: [3H]muscimol; quantity = Ki; result = inactive
Structure (SMILES) = C[N+](C)(C)CCOC(N)=O; target or system = Neuronal acetylcholine receptor subunit alpha-7 (CHRNA7, Homo sapiens, UniProt P36544); assay = binding; conditions = 24 or 48 h, 37 °C; quantity = Hill coefficient; result = 1.47 ± 0.07
Structure (SMILES) = CC(=O)NC(Cc1ccc(Br)c(Cl)c1)C(=O)N[C@@H](C)C(=O)N1CCC[C@H]1C(=O)N1CCC[C@H]1C(=O)N[C@@H](CCC(=O)O)C(=O)N[C@@H](Cc1c[nH]cn1)C(=O)N[C@@H](CO)C(=O)N[C@H](C(=O)N[C@@H](C)C(N)=O)[C@@H](C)OP(=O)(O)O (stereo partly shown); target or system = Hepatocyte growth factor receptor (MET, Homo sapiens, UniProt P08581); conditions = 10 µM; quantity = inhibition; result = 2.82 ± 0.14%
Structure (SMILES) = CCN(Cc1ccccc1)C(=O)CCc1nc(CN2CCN(C(=O)Cc3ccc(OC)c(OC)c3)CC2)no1; target or system = Sodium channel protein type 9 subunit alpha (SCN9A, Homo sapiens, UniProt Q15858); assay = whole-cell patch clamp; system = HEK stable; conditions = 100 nM; quantity = V1/2 of activation; result = -35.8 ± 1.64 mV
Structure (SMILES) = Cc1sc2c(c1C)C(c1ccc(Cl)cc1)=N[C@@H](CC(=O)OC(C)(C)C)c1nnc(C)n1-2; target or system = Bromodomain and WD repeat-containing protein 1, bromodomain 2 (BRWD1, Homo sapiens, UniProt Q9NSI6); assay = ITC; conditions = 25 µM, 15 °C, protein 300 µM; quantity = binding; result = no binding
Structure (SMILES) = C=C(C)C1C2OC(=O)C1C1(O)CC3OC34C(=O)OC2C14C (stereo not shown); target or system = GABA-A receptor; alpha-1/beta-2/gamma-2 (Homo sapiens, UniProt P14867+P18507+P47870, V284A); assay = inhibitor, two-electrode voltage clamp; system = Xenopus oocytes; conditions = with: GABA at EC50; quantity = Hill coefficient; result = 0.95 ± 0.09
Structure (SMILES) = Cc1ccccc1N1C(=O)/C(=C/c2ccc(OCc3cccc(C(=O)O)c3)cc2)C(=O)NC1=S; target or system = Tyrosine-protein phosphatase non-receptor type 6 (PTPN6, Homo sapiens, UniProt P29350); assay = phosphatase activity, inhibitor; scale = baseline: LYP IC50 over PTPN6 IC50 inverse; quantity = selectivity ratio; result = 46 fold
Structure (SMILES) = CCCCCc1cc(O)c2c(c1)OC(C)(C)C1CCC(C)=CC21 (single isomer, unassigned; (-)); target or system = UDP-glucuronosyltransferase 2B4 (UGT2B4, Homo sapiens, UniProt P06133); assay = codeine glucuronidation; system = HEK293 microsomes; conditions = 100 µM, with: codeine; scale = baseline: untreated; quantity = inhibition; result = 79%
Structure (SMILES) = N=C(N)Nc1ccc2[nH]c3c(c2c1)C[C@@]1(O)[C@H]2Cc4ccc(O)c5c4[C@@]1(CCN2CC1CC1)[C@H]3O5; target or system = Carbamate kinase (Giardia intestinalis, UniProt A8BB85); assay = enzyme activity, inhibitor, luminescence, ATP detection; system = Giardia lamblia; quantity = maximal inhibition; result = 86%
Structure (SMILES) = CCCCCn1cc(C(=O)c2cccc3ccccc23)c2ccccc21; target or system = Cannabinoid receptor 2 (CNR2, Homo sapiens, UniProt P34972, V261L); assay = Gαi1 engagement, agonist, BRET; scale = baseline: reference agonist at wild-type CB2; quantity = Emax; result = 29.9 ± 4.1%
Structure (SMILES) = CSCC[C@H](NC(=O)[C@H](CCSC)NC(=O)CNC(=O)[C@H](CS)NC(=O)[C@@H](N)CO)C(=O)O; target or system = Formylglycine-generating enzyme (Mycobacterium tuberculosis, UniProt I6Y8I5); assay = enzyme activity, inhibitor, LC-MS; conditions = 100 µM, 10 min, with: pentapeptide substrate; quantity = inhibition; result = > 50%
Structure (SMILES) = CCCCCn1cc(C(=O)c2ccc3ccccc3c2)c2ccccc21; target or system = Cannabinoid receptor 1 (CNR1, Homo sapiens, UniProt P21554, I267L/L193I/L359V); assay = Gαi1 engagement, agonist, BRET; conditions = CB1 triple mutant; scale = baseline: wild type receptor; quantity = Emax increase; result = ~40%
Structure (SMILES) = N=C(N)NCCC[C@@H]1NC(=O)[C@H](CCCCNC(=O)CC[C@H](NC(=O)CCOCCOCCOCCOCCNC(=O)CC[C@H](NC(=O)CN2CCN(CC(=O)O)CCN(CC(=O)O)CCN(CC(=O)O)CC2)C(=O)NCCOCCOCCOCCOCCC(=O)N[C@@H](CCC(=O)NCCCC[C@@H]2NC(=O)[C@@H](Cc3ccccc3)NC(=O)[C@H](CC(=O)O)NC(=O)CNC(=O)[C@H](CCCNC(=N)N)NC2=O)C(=O)NCCCC[C@@H]2NC(=O)[C@@H](Cc3ccccc3)NC(=O)[C@H](CC(=O)O)NC(=O)CNC(=O)[C@H](CCCNC(=N)N)NC2=O)C(=O)NCCCC[C@@H]2NC(=O)[C@@H](Cc3ccccc3)NC(=O)[C@H](CC(=O)O)NC(=O)CNC(=O)[C@H](CCCNC(=N)N)NC2=O)NC(=O)[C@@H](Cc2ccccc2)NC(=O)[C@H](CC(=O)O)NC(=O)CNC1=O [indium-111 labelled]; system = female athymic nude mice, heart; conditions = intravenous, 3 µCi, 72 h, U-87 MG glioma xenograft; quantity = tissue uptake; result = 0.1 ± 0.01 %ID/g

Excerpt of the above:
Structure (SMILES) = CCCCCn1cc(C(=O)c2ccc3c(c2)CC(C)(C)C3)c2ccccc21; target or system = Cannabinoid receptor 1 (CNR1, Homo sapiens, UniProt P21554, L359V); assay = Gαi1 engagement, agonist, BRET; scale = baseline: reference agonist at wild-type CB1; quantity = Emax; result = 40.3 ± 4.7%
Structure (SMILES) = CSCC[C@H](NC(=O)[C@H](CCSC)NC(=O)CNC(=O)[C@H](CS)NC(=O)[C@@H](N)CO)C(=O)O; target or system = Formylglycine-generating enzyme (Mycobacterium tuberculosis, UniProt I6Y8I5); assay = enzyme activity, inhibitor, LC-MS; conditions = 100 µM, 10 min, with: pentapeptide substrate; quantity = inhibition; result = > 50%
